# Assay results pooled from the literature.
# Lines come from different studies, so protocols differ. ± marks the error that the study gave.
# NR1I2: Nuclear receptor subfamily 1 group I member 2 (NR1I2, Homo sapiens, UniProt O75469)
# Sequence of UniProt O75469 (whole entry, looked up): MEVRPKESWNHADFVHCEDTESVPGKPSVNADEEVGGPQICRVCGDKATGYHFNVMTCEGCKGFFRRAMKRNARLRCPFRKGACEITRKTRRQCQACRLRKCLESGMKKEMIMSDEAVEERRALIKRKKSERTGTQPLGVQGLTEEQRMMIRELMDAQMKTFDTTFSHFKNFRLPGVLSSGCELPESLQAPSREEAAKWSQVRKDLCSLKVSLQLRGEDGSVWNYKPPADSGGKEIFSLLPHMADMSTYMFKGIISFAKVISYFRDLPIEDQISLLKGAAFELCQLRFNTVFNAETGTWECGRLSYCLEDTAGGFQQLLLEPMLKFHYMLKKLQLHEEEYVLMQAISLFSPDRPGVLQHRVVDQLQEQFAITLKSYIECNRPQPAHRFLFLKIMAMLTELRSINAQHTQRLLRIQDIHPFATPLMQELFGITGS
# CYP2A6: Cytochrome P450 2A6 (CYP2A6, Homo sapiens, UniProt P11509)
# Sequence of UniProt P11509 (whole entry, looked up): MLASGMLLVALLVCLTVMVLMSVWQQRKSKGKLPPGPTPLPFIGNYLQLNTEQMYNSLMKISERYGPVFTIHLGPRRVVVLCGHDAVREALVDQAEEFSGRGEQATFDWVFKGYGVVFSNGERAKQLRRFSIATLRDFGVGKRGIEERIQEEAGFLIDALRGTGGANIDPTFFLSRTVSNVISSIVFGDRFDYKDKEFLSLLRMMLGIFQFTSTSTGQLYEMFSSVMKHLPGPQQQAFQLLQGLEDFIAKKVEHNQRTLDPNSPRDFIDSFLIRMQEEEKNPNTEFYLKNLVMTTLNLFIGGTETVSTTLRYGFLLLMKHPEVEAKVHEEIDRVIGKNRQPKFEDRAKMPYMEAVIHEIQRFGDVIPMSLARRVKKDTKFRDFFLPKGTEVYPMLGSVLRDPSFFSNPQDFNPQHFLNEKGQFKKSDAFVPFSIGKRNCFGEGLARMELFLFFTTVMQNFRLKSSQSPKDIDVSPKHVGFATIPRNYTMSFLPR
# Sequence of UniProt P33261 (whole entry, looked up): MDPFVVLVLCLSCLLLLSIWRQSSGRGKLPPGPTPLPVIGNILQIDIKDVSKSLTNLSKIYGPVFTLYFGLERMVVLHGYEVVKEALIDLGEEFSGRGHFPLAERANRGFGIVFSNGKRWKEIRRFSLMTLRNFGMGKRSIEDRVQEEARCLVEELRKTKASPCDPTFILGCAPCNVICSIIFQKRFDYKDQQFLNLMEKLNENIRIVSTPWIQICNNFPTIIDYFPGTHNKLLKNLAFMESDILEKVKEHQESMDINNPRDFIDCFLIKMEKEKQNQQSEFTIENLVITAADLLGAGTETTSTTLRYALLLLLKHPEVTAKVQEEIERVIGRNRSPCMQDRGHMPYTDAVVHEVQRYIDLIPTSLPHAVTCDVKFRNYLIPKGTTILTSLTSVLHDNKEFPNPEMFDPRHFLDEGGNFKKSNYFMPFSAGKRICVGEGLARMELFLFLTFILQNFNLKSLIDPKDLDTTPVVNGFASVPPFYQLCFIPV
# Sequence of UniProt P46721 (whole entry, looked up): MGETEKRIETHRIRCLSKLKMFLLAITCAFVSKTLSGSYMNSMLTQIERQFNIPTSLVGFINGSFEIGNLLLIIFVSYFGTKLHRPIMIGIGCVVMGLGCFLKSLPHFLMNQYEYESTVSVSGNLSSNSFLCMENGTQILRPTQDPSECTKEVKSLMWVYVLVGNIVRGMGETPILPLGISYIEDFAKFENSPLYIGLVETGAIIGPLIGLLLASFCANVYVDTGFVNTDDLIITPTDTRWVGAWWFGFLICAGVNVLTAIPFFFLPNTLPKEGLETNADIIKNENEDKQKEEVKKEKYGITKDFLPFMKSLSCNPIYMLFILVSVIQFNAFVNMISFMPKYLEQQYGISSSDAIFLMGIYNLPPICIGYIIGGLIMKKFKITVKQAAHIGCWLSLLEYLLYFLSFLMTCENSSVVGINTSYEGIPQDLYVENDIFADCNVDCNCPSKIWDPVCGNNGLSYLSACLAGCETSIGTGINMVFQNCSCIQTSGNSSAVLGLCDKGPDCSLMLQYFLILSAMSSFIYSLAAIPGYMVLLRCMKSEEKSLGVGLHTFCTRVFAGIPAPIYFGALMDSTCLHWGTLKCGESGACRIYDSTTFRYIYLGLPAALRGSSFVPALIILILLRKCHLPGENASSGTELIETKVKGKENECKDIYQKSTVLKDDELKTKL
# Sequence of UniProt P11712 (whole entry, looked up): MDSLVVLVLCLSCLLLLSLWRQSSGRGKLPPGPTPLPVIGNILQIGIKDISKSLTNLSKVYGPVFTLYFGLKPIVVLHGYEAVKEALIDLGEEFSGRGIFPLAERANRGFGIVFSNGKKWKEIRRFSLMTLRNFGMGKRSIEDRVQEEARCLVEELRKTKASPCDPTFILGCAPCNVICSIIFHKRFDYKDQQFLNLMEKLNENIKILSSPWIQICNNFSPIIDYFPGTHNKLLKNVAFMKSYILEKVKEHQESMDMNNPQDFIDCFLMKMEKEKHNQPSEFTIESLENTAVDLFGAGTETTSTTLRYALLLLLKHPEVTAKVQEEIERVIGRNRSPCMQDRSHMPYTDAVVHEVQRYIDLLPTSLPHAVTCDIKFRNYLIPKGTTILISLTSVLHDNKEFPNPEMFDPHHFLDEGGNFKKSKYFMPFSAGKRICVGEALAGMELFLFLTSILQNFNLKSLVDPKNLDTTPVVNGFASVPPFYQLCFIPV
# Sequence of UniProt P08682 (whole entry, looked up): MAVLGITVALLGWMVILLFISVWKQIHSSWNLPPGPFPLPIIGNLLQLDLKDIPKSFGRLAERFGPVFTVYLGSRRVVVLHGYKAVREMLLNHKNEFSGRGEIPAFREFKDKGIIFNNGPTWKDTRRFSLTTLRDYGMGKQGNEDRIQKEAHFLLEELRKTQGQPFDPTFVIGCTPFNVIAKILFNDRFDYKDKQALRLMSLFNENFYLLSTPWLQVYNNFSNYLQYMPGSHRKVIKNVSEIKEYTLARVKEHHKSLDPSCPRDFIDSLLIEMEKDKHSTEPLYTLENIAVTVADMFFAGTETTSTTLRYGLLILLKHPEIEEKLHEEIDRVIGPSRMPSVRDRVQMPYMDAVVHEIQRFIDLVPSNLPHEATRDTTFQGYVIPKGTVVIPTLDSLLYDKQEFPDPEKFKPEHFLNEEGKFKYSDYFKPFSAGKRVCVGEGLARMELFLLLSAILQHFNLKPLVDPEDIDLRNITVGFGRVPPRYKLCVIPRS
# Sequence of UniProt Q95LD9 (whole entry, looked up): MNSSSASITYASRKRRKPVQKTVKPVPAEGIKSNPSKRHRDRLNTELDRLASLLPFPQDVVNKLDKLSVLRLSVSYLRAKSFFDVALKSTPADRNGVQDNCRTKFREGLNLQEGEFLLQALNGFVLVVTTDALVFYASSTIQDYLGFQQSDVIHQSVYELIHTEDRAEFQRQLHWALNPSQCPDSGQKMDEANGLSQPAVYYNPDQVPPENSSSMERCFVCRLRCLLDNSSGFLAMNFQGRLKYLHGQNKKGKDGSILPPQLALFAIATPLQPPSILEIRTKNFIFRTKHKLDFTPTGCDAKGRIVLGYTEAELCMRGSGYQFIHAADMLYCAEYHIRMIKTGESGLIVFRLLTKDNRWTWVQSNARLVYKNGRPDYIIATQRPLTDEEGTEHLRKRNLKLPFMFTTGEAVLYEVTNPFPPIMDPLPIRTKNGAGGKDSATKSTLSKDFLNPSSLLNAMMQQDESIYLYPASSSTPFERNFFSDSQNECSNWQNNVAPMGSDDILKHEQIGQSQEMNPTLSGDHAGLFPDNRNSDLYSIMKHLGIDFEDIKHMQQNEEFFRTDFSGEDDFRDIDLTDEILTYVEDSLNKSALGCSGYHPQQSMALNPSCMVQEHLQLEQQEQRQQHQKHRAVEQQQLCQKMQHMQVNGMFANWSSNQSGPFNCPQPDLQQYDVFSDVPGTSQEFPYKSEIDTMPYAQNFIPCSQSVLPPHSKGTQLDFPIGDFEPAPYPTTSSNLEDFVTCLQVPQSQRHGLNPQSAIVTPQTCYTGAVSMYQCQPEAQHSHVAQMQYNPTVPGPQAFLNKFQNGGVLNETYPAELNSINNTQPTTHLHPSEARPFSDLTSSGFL
# Sequence of UniProt P08684 (whole entry, unmodified, looked up): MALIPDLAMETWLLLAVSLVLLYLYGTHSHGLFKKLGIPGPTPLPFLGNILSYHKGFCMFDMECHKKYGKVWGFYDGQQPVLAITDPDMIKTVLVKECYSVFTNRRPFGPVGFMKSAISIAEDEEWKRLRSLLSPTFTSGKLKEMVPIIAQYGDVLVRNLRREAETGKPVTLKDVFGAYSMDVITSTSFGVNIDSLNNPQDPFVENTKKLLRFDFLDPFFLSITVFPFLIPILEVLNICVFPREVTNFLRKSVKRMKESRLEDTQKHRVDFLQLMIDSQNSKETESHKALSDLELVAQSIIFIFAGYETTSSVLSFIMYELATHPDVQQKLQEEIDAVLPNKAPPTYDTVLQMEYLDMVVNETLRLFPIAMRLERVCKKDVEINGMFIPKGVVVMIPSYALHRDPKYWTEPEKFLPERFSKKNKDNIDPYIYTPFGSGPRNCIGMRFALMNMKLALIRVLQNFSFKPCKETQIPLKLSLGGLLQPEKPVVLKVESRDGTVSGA
# Sequence of UniProt Q16696 (whole entry, looked up): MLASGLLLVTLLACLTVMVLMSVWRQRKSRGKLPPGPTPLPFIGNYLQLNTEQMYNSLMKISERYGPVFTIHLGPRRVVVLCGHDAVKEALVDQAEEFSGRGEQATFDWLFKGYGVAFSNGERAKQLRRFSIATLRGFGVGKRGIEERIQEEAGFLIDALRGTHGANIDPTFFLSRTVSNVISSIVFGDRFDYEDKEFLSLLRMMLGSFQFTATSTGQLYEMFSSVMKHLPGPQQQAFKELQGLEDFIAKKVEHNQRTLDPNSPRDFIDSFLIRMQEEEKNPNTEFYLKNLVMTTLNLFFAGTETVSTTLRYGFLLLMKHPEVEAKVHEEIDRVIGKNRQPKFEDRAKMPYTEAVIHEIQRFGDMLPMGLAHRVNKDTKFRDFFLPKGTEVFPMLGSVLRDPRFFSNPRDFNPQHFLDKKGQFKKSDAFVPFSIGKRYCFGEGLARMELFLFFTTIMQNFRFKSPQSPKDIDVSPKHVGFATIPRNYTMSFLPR
Structure (SMILES),target,assay,test system,setting,how to read,endpoint,value
Clc1ccc(-c2ccc(Cl)cc2Cl)cc1,NR1I2,"reporter gene, agonist, luciferase",COS-7,24 h,relative to: DMSO,fold induction,1.9 ± 0.2 fold
Clc1ccc(-c2ccc(Cl)c(Cl)c2Cl)c(Cl)c1Cl,"Aryl hydrocarbon receptor (AHR, Delphinapterus leucas, UniProt Q95LD9)","binding, competitor",,"in vitro expressed receptor, together with: [3H]TCDD",,Ki,0.384 µM
Oc1ccc(/C=C/c2cc(O)cc(O)c2)cc1,UGT1A10 human,"4'-O-glucuronide formation, substrate",,pH 7.4,,Km,300 ± 54 µM
CC(C)(c1cc(Br)c(O)c(Br)c1)c1cc(Br)c(O)c(Br)c1,PXR (polar bear),"reporter gene, agonist, luciferase",COS-7,24 h,relative to: DMSO,fold induction,3.8 ± 0.5 fold
CSCC[C@H](NC=O)C(=O)N[C@@H](CC(C)C)C(=O)N[C@@H](Cc1ccccc1)C(=O)O,"Slc15a1 (Mus musculus, UniProt Q9JIP7)",substrate,"wild-type mouse, jejunum, in situ perfusion","0.1 µM to 7.5 mM, pH 6.5, intestinal wall concentration, together with: phenylalanine 100 mM",,maximal transport rate,0.73 ± 0.07 nmol/cm²/s
C#CCOCc1ccc(-c2ccccc2)cc1,"Cytochrome P450 2A13 (Homo sapiens, UniProt Q16696)","binding, absorbance",,pH 7.4,,Kd,66 µM
c1cn[nH]c1,"CYP2E1 (Oryctolagus cuniculus, UniProt P08682)","binding, type II spectral titration",,"pH 7.4, 25 °C, second site",,Kd,6000 µM
C=C(C)[C@@H]1CCC(C)=C[C@H]1c1c(O)cc(CCCCC)cc1O,CYP2A6,"nicotine C-oxidation to cotinine, inhibitor",microsomes of overexpressing HEK293 cells,"1 µM, 30 min, pH 7.4, together with: nicotine 100 µM",,inhibition,55%
Brc1ccc(Oc2cc(Br)c(Br)cc2Br)c(Br)c1,NR1I2,"reporter gene, agonist, luciferase",COS-7,24 h,relative to: DMSO,fold induction,5.1 ± 0.7 fold
CC[N+]1=C(C=CC=CC=C2N(CCCCCC(=O)NCCN3C(=O)CC(SC[C@@H](NC(=O)[C@@H](CCCNC(=N)N)NC(=O)[C@@H](CCCNC(=N)N)NC(=O)[C@@H](CCCNC(=N)N)NC(=O)[C@@H](CCCNC(=N)N)NC(=O)[C@@H](CCCNC(=N)N)NC(=O)[C@@H](CCCNC(=N)N)NC(=O)[C@@H](CCCNC(=N)N)NC(=O)[C@@H](CCCNC(=N)N)NC(=O)[C@@H](CCCNC(=N)N)NC(=O)[C@H](CC(C)C)NC(=O)[C@H](CCCCN)NC(=O)[C@H](CC(C)C)NC(=O)[C@H](CCC(N)=O)NC(=O)[C@H](CC(C)C)NC(=O)[C@H](CCCNC(=N)N)NC(=O)CCCCCNC(=O)[C@@H](CCC(=O)O)NC(=O)[C@@H](CCC(=O)O)NC(=O)[C@@H](CCC(=O)O)NC(=O)[C@@H](CCC(=O)O)NC(=O)[C@@H](CCC(=O)O)NC(=O)[C@@H](CCC(=O)O)NC(=O)[C@@H](CCC(=O)O)NC(=O)[C@@H](CCC(=O)O)NC(=O)[C@H](N)CCC(=O)O)C(N)=O)C3=O)c3ccc(S(=O)(=O)O)cc3C2(C)C)C(C)(C)c2cc(S(=O)(=O)[O-])ccc21 (stereo partly shown),"Matrilysin (MMP7, Homo sapiens, UniProt P09237)",substrate,,"5 µM, 2 h",,cleavage,23.4 ± 2.5%
Clc1cc(Cl)c(-c2c(Cl)cc(Cl)c(Cl)c2Cl)cc1Cl,NR1I2,"reporter gene, agonist, luciferase",COS-7,24 h,relative to: DMSO,fold induction,2.9 ± 0.5 fold
C#CCOc1ccccc1-c1ccccc1OCC#C,CYP2A6,"binding, absorbance",,pH 7.4,,Kd,32 µM
C[C@]12CC[C@@H]3c4ccc(OS(=O)(=O)O)cc4CC[C@H]3[C@@H]1CCC2=O,"SLCO1A2 (Homo sapiens, UniProt P46721)",substrate,HEK293 overexpressing OATP1A2,,relative to: vector control,cellular uptake,increased
COc1ccc(CCN2CCN(c3ccccc3OC)CC2)cc1OC.Cl,"CYP2C19 (Homo sapiens, UniProt P33261)",,purified human isozyme,"0.5 µM, 37 °C, together with: NADPH 2 mM",,half-life,20 min
OCCCCc1ccc2ccc3cccc4ccc1c2c34,"Cytochrome P450 3A4 (CYP3A4, Homo sapiens, UniProt P08684, F304W)",FRET titration by dilution,,"pH 7.4, F304W mutant, excess substrate, enzyme:substrate 1:6, together with: HPCD 0.6 mg/mL",,Kd,5.4 ± 0.5 µM
CC(=O)C(O)C(c1ccccc1)c1c(O)c2ccccc2oc1=O (stereo not shown),"Cytochrome P450 2C9 (CYP2C9, Homo sapiens, UniProt P11712)","enzyme activity, inhibitor","human, liver microsomes",,,Ki,2.2 µM
